Results from different studies.
Numbered parts are unrelated; each lists some results of a single study.

Series 1 — method: RNA Bind-n-Seq; form: RNA; medium: in vitro; concentration: 1 µM; setting: whole 134-nt RNA, ends assumed; with: 150 mM KCl; baseline: input library; reading: higher = stronger binding
Target: Ras GTPase-activating protein-binding protein 1, C-terminal RGG region (G3BP1, Homo sapiens, UniProt Q13283)
Sequence of UniProt Q13283 (whole entry, looked up): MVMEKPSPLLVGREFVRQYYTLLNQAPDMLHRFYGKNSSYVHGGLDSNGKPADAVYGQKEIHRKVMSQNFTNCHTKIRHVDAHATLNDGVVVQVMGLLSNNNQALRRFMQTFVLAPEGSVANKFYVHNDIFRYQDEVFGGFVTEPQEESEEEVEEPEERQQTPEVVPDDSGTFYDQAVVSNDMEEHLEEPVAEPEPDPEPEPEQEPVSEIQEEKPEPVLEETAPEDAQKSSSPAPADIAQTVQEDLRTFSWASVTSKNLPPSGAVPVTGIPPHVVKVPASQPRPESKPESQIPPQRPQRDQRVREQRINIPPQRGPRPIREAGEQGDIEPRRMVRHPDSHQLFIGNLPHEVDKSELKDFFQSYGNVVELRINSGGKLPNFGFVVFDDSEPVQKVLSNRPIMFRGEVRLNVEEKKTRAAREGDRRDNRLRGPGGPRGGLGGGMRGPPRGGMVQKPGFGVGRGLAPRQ
Shared flanks, not repeated: GGGAGUUCUACAGUCCGACGAUC … UGGAAUUCUCGGGUGUCAAGG
Oligonucleotide	log2 enrichment
UGGCCCUGGUGGCAUGCGGGGGGGAAGAGGUGGCCUCAUGGAUCGUGGUGGUCCCGGUGGAAUGUUCAGAGGUGGCCGUGGUGGAGACAG	2.25
AAGUCCUGUGCUACACAUCGUAUGUACCGAAUCGGGUUUGGGAAAAAAAGGGUGGGAAAGUAUUAUGUUACGCCGUUCGGAUCUGCACUU	1.15
GCAGGAAGUAAAAACAAAUGGAAAUGCUUCGGAUAGUGGCAGGGGUGGGGGUUGCUAAGGAAAGGGUGGGAUGGGAGUGGGUAAAGCGUU	1.42
UCCUCAAGUCCUGUGCUACACAUCGUAUGUACCGAAUCGGAGGUGGUUUGGAAAGUAUUAUGUUACGCCGUUCGGAUCUGCACUUCCAGC	-0.93
ACCAUGCAGGUGGGCAUCUUUGGGAAGUGGGGCAAGGGGGGGAUAGGGAGGGGGGUAACUCUUUGGGAACAGGUGGUCCCAGGUCGUUUC	2.31
UAACUUUAGAGGAGGAUCUGAUGGAUAUGGCAGUGGACGUGGAUUUGGGGAUGGCUAUAAUGGGUAUGGAGGAGGACAUGGAGGUGGCAA	-1.01
AAGUCCUGUGCUACACAUCGUAUGUACCGAAUCGGGUUUGGGUUUGGGUUUUUGGGAAAGUAUUAUGUUACGCCGUUCGGAUCUGCACUU	1.62
UGGCCCUGGUGGCAUGCGGGGAGGAAGAGGUGGCCUCAUGGCUCGUGGUGGUCCCGGUGGAAUGUUCAGAGGUGGCCGUGGUGGAGACAG	1.34
AAGUCCUGUGCUACACAUCGUAUGUACCGAAUCGGGGAAAGGGGUGGGGAAAGGGGAAAGUAUUAUGUUACGCCGUUCGGAUCUGCACUU	2.29
UCAAGUCCUGUGCUACACAUCGUAUGUACCGAAUCGGGGUUGGGUUGGGGUUGGAAAGUAUUAUGUUACGCCGUUCGGAUCUGCACUUCC	0.0208
CUGUGCUACACAUCGUAUGUACCGAAUCGGGGUUUGGGGAAAAAAAGGGGAAAAAAAGGGGAAAGUAUUAUGUUACGCCGUUCGGAUCUG	0.00425
UCCUGUGCUACACAUCGUAUGUACCGAAUCGGAAAAAAGGGGAAAAAAGGGAAAAAAGGGAAAGUAUUAUGUUACGCCGUUCGGAUCUGC	-1.13
UGGCCCUGGUGGCAUGCGGGGAGGAAGAGGUGGCCUCAUGGAUCGUGGAGGUCCCGGUGGAAUGUUCAGAGGUGGCCGUGGUGGAGACAG	0.157

Series 2 — method: universal PBM; form: double-stranded DNA, one strand shown; medium: in vitro; concentration: not given; reading: higher = stronger binding
Target: Sal-like protein 4, full length isoform B (SALL4, Homo sapiens, UniProt Q9UJQ4-2, residues 1-616)
Setting: 8-mer, flanks averaged, mean of replicates
Residues (chain): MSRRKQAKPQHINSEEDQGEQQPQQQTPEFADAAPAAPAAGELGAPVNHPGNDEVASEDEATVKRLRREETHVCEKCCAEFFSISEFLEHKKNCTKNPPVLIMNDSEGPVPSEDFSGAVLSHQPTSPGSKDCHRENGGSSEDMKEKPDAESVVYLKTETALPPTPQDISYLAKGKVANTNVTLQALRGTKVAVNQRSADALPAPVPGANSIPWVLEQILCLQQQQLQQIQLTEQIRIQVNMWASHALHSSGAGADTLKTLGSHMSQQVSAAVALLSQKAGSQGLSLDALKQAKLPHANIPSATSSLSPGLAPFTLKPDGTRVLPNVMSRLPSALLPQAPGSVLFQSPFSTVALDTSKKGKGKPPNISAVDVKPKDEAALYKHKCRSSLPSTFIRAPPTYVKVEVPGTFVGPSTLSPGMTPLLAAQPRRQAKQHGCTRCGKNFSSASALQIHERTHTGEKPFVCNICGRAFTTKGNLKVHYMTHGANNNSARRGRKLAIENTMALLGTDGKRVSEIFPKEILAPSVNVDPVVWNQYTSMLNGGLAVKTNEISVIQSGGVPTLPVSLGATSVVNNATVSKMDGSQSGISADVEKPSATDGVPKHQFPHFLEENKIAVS
Oligonucleotide	E-score
GCCTTTAC	-0.00425
CACAAGAC	0.0329
AGTGGCCC	-0.229
CCGTTAAA	0.0141
GCTTAGGA	-0.266
CCGTCTAA	-0.136
GATTTACA	0.242
AATGCCAC	-0.00503
AGAATCGG	-0.135
ATGAGTAA	0.206
ACCCTATC	-0.0239
ATAAACGC	0.221
CCACGGAA	-0.0691
GAATTGCA	0.0935
ACCTTACA	0.0899
ACGCTCGG	-0.167
CCATAAGG	0.0559
GGGCACCC	-0.265
AACGATCA	0.0255
AGGCTCCA	-0.19
CAACGACA	0.0171

Series 3 — method: RNA Bind-n-Seq; form: RNA; medium: in vitro; concentration: 365 nM; baseline: no-protein control; reading: higher = stronger binding
Target: RNA binding protein fox-1 homolog 2, RRM domain, GST-SBP tag (RBFOX2, Homo sapiens, UniProt O43251-10, residues 100-194)
Setting: natural RNA segment, single round, ends assumed
Shared flanks, not repeated: GGGAGUUCUACAGUCCGACGAUC … UGGAAUUCUCGGGUGCCAA
Construct (chain): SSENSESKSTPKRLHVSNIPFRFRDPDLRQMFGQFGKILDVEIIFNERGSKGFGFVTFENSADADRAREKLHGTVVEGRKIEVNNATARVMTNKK
Oligonucleotide	RBNS enrichment (R)
GCUGUUUGUAAUGCAGUCUUCCAUUCUGUGAGUCUUUGAUUCUCCAUGCUGGCUAGAAGUUGGCCACAACUUGAGCAAAACUGCCUCUCACACAGUGAGAUGCACUCAAA	0.296
GCUAGGAGAGCCUGGGCUUCCUCCUUGCGGUGGGGCCAGCCUGCAAAGGGCCACUGACCUGGCAAGCAUUUACUUCUACUUCACCAAAGAUGCCCAGAGUGAUGGGUCAG	0.673
GACAAUCCGAGCAGUGGAGUCAUUCAGCGGGAGCACUGCGCGCUAUCCCCUCACAUUCUCUAUGUACUAUGUAUGUAUGUAUUAUUAUUAUUGCUGCCAAGAGGGUCUGA	0.517
AAAACCAAGCUCACGUUUUUCUUAAGGGAAAAAUUUUCUUUCUUAAACUUACAUCUAGCAACUUGGAAAGCACUUUCUCUGGGGAUCUUCUUUUGUAACUUUGCAGACAA	0.553
CCAUCCGGGAUGGCCGCCUGUCCCUGACUAUUGAGUCCUGUUGUUGUAAGCCAGGCAUGGAGGGCUCCUGCCCUUCUGCUGAGCCACAGCCCAUUGCAGCACUGUGCUGG	0.19
CACUUGUGGUCUGAAUGUUCUCCUGAGGCCUCUGGCUAGAGUCUAGCCCCACCCAGGGGGAGGGGCUUAGCUGCUGAAAGUCCACCUUGCUAGAGCUAGGGUGGCUCUUG	0.417
CCACAAACCACCAGGACUGAAAGAAGAAAACAGUACAGAAGGCAAAGUUUACAGAUGUUUUUAAUUCUAGUAUUUUAUCUGGAACAACUUGUAGCAGCUAUAUAUUUCCC	0.583
UGUUUAUUCCCUUUUCACUGGUCCCGUUCGUGAAUGAGUGAAUAUAAGAAGCCUGUCAGUAUUGCCAUGAGACUGUUUCAUAUGGUUACUUUUCUGUAUUCCCAAGGAAU	0.849
GAUGGAAGUGCAUCCUCUGGGAAAAAGAUAAUGGCUUCUGAUUCAACAUAGCCAUAGUCCUUUGAAGUAAGUGGCUAGAAACAGCACUCUGGUUAUAAUUGCCCCAGGGC	0.404
AUUCCAAGUCACUCCUCGAUGAAGACUCUUGUUGAGACUUACUAAACACUUUAGGCGCAGUCGGGAGGAUCUGCAGCAAAAUAAAGGCCUGUUCUGCUCUUAUUUAACAU	0.357
AAGCUCUGGGGACUGAGCUCCAUGCUCCAACCCCACCCUCUUCUGACCUUUGUUCUCCAGACCUGACCCAGGUAGGCAAGGGUACCCUCCCAGUCUCACCUACCAUACUG	0.426
GAAGGGAAAUGUUGAGCCAAAGUUAUGCCUGCGAAGACCCUAAGGUCUCAAAAAGAAGUCUUAAGACGGCAUUGCUUAAGGUGCUUCAUUCCCUAAUCCCCUUUUGAUUU	0.318

Series 4 — method: RNA Bind-n-Seq; form: RNA; medium: in vitro; concentration: not given; baseline: input RNA pool; reading: higher = stronger binding
Target: RING finger protein unkempt homolog, zinc fingers 1-6, GST-SBP tag (UNK, Homo sapiens, UniProt Q9C0B0, residues 30-357)
Setting: RNA with constant flanks, human and mouse sites, ends assumed
Shared flanks, not repeated: GGGAGUUCUACAGUCCGACGAUC … CAACAGAGGAUUGAGCAUCA
Residues (chain): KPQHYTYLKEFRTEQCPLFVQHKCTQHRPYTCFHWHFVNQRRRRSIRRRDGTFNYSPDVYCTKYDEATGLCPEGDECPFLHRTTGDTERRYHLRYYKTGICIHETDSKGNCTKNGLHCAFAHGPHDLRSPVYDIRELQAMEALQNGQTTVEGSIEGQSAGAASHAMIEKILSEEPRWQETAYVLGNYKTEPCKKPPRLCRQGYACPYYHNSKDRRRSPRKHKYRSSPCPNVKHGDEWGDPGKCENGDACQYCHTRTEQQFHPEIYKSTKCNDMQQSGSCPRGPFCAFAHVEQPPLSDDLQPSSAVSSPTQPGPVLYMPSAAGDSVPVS
Oligonucleotide	bound/input enrichment [ratio]
UAACUUAUUUUUCAUCAGAGUAUGACUGAAACAUGCUUCUACCAAAUACAAUAUAAAGAAUUAGGUAGUCCUAAUGCCUUUCCUAUAUUAUUUUUUUUUCCUUUUCCACACAAGACAACA	5
UUAGGUUCACAUACCUGCCUGCUAGUCGGGCAACAUGAAGUAGGACAGUUCUGUUGAUUUUUUAGGGCCAUACUAAAGGGAAUGAGCUGAAACAGACCUCCUGAUACCUUUGCUUAAUUA	0.163
CAGAAAUAGGAUAGCAGGCUUUGAAGUAAAAGCCUAUGCUAACCCUACAGUGGUUCGAUGUGAAAUUCACCAUGGGCAGACUGGAGGAAUAUAUGUCCAUGAAAAAGGAAGAGGACAAUU	0.223
GUACCAAAACUAGACUAGGAAUGAUUUCUCUUGAACUCCUGUCAAUAUUUAUUUCCUCCAUCUAUAAUGGACAGUUAGAUGUGGGAUUUUUUGAUUUUACUCCAACUUUUUUUAAAGUGC	3.02
CUGCUCACCCAGUACGAGCGUGAGAAGGCGCUGCGCAGGCAGGCGGAGGAGAAAUUCAUUGAGUUUGAAGAUGCUCUGGAACAAGAGAAGAAAGAGCUGCAAAUCCAGGUGGAGCACUAC	0.0988
GGAUUUGGAGAUGCAGUGGAUAAUAGUAAUUGCUGGCAGCCUGUUAUCGACUACAUUGAUAGUAAAUUUGAAGAUUACUUAAAUGCAGAAUCUCGAGUGAACAGACGUCAGAUGCCUGAU	0.545

Series 5 — method: protein binding microarray; form: double-stranded DNA, one strand shown; medium: in vitro; concentration: not given; baseline: not given; reading: higher = stronger binding
Target: Histone acetyltransferase KAT6A, both winged helices, GST fusion (KAT6A, Homo sapiens, UniProt Q92794, residues 1-181)
Setting: 8-mer, flanks averaged, mean of 2 arrays, mostly near background
Residues (chain): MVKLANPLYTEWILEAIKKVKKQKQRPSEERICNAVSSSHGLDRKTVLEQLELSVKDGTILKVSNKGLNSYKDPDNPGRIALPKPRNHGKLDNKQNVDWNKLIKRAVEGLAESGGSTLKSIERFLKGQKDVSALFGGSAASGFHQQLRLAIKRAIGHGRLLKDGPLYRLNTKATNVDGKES
Oligonucleotide	E-score
AGTCGAAC	0.0444
ATCTCTTC	-0.0773
ACCTCCGC	0.0693
CTTCTGCC	-0.0795
AAATACAC	-0.0458
GCTCGGGA	0.106
GATAATAC	-0.201
GTGACCCA	-0.195
TAAAATGA	-0.106
AAGCTCAA	-0.206
ATGTTCCA	-0.0581
CTGATGCA	-0.0202
AAACGTCG	0.139
CAGCACAG	-0.0982
ATACTACG	0.0912

Series 6 — method: protein-binding microarray; form: double-stranded DNA, one strand shown; medium: in vitro; concentration: not given; reading: higher = stronger binding
Target: Transcription factor Sp1 (SP1, Homo sapiens, UniProt P08047, residues 1-785, full length assumed)
Sequence of UniProt P08047 (whole entry, looked up): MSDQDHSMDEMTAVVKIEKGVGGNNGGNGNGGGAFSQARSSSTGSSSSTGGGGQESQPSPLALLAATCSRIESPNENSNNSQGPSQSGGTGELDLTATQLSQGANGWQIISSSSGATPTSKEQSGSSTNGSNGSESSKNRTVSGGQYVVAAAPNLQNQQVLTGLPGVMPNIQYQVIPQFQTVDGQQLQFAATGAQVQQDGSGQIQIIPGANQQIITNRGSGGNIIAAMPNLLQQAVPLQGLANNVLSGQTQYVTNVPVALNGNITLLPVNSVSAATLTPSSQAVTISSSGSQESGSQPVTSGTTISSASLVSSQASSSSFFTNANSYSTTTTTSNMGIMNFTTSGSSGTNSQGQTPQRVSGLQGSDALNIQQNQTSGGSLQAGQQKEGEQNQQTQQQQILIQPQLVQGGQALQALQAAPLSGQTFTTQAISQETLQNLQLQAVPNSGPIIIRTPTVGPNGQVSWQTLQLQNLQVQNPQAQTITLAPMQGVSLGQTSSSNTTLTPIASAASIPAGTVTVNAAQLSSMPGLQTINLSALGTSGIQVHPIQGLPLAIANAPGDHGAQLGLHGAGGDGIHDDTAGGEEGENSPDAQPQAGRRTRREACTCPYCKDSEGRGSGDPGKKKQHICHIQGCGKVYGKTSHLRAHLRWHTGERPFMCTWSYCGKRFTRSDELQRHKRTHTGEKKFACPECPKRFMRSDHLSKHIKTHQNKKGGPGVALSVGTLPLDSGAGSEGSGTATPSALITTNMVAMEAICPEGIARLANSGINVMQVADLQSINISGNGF
Setting: k-mer, scored over probes, only values ≥0.25
Oligonucleotide	E-score
ATTCACAA	0.301
ACGCCCAC	0.486
CCCTACCC	0.269
CCTTCTAC	0.264
GCCACCCC	0.342
ACGGGGAG	0.271
CGCCCATA	0.34
AACTAGGG	0.265
ATATACTA	0.26
CACCCCAC	0.426
AACAATAT	0.302
GGGAGGAA	0.286
GCCCCTTA	0.275
CCCCTCCA	0.474

Excerpt of the above (series 5):
Oligonucleotide	E-score
ATACTACG	0.0912
ACCTCCGC	0.0693
AGTCGAAC	0.0444
CTGATGCA	-0.0202
CTTCTGCC	-0.0795
ATCTCTTC	-0.0773
ATGTTCCA	-0.0581
AAGCTCAA	-0.206
TAAAATGA	-0.106
CAGCACAG	-0.0982
GCTCGGGA	0.106
AAATACAC	-0.0458
GTGACCCA	-0.195
GATAATAC	-0.201
